Measurements collected from several papers.
Lines come from different studies, so protocols differ. “And” joins repeats or separate records; there may be more than shown. Numbers after ± are the reported error. Non-standard residues stand in square brackets, D forms with d. Square brackets hold non-standard residues; d marks the D form. Where no end group is shown, it is not given here. Ends that are not written are not given here. No end group written: not given here. * marks the point of attachment. *: point of attachment.
RPA1: RPA1 1-120 (Homo sapiens, UniProt P27694)
UniProt P27694, sequence (whole entry, looked up): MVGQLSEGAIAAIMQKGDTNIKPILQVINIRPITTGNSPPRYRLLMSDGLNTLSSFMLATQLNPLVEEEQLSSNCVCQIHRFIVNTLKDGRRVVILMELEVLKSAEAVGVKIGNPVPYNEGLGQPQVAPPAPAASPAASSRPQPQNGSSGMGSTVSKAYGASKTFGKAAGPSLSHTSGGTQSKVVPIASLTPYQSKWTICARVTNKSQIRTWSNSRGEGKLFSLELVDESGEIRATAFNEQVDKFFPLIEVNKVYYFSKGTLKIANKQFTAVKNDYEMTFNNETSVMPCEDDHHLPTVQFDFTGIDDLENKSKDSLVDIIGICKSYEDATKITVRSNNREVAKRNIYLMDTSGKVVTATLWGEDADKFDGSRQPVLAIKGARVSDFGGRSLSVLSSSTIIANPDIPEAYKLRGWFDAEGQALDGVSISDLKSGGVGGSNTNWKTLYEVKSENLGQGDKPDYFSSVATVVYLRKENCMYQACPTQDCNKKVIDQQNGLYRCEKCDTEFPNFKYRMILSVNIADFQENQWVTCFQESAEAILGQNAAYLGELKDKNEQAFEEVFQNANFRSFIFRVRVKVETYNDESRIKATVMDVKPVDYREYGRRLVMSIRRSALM
B1: CLASP1/GFP 1-654 (Homo sapiens); chain MEPRMESCLAQVLQKDVGKRLQVGQELIDYFSDKQKSADLEHDQTMLDKLVDGLATSWVNSSNYKVVLLGMDILSALVTRLQDRFKAQIGTVLPSLIDRLGDAKDSVREQDQTLLLKIMDQAANPQYVWDRMLGGFKHKNFRTREGICLCLIATLNASGAQTLTLSKIVPHICNLLGDPNSQVRDAAINSLVEIYRHVGERVRADLSKKGLPQSRLNVIFTKFDEVQKSGNMIQSANDKNFDDEDSVDGNRPSSASSTSSKAPPSSRRNVGMGTTRRLGSSTLGSKSSAAKEGAGAVDEEDFIKAFDDVPVVQIYSSRDLEESINKIREILSDDKHDWEQRVNALKKIRSLLLAGAAEYDNFFQHLRLLDGAFKLSAKDLRSQVVREACITLGHLSSVLGNKFDHGAEAIMPTIFNLIPNSAKIMATSGVVAVRLIIRHTHIPRLIPVITSNCTSKSVAVRRRCFEFLDLLLQEWQTHSLERHISVLAETIKKGIHDADSEARIEARKCYWGFHSHFSREAEHLYHTLESSYQKALQSHLKNSDSIVSLPQSDRSSSSSQESLNRPLSAKRSPTGSTTSRASTVSTKSVSTTGSLQRSRSDIDVNAAASAKSKVSSSSGTTPFSSAAALPPGSYASLGRIRTRRQSSGSATNVA
B2: UGT1A9 (Homo sapiens, UniProt O60656); chain GKLLVVPMDGSHWFTMRSVVEKLILRGHEVVVVMPEVSWQLGRSLNCTVKTYSTSYTLEDLDREFKAFAHAQWKAQVRSIYSLLMGSYNDIFDLFFSNCRSLFKDKKLVEYLKESSFDAVFLDPFDNCGLIVAKYFSLPSVVFARGILCHYLEEGAQCPAPLSYVPRILLGFSDAMTFKERVRNHIMHLEEHLLCHRFFKNALEIASEILQTPVTEYDLYSHTSIWLLRTDFVLDYPKPVMPNMIFIGGINCHQGKPLPMEFEAYINASGEHGIVVFSLGSMVSEIPEKKAMAIADALGKIPQTVLWRYTGTRPSNLANNTILVKWLPQNDLLGHPMTRAFITHAGSHGVYESICNGVPMVMMPLFGDQMDNAKRMETKGAGVTLNVLEMTSEDLENALKAVINDKSYKENIMRLSSLHKDRPVEPLDLAVFWVEFVMRHKGAPHLRPAAHDLTWYQYHSLDVIGFLLAVVLTVAFITFKCCAYGYRKCLGKKGRVKKAHKSKTH
B3: adrenodoxin (Homo sapiens, UniProt P10109); RED dye on amines; sequence looked up; chain SSSEDKITVHFINRDGETLTTKGKVGDSLLDVVVENNLDIDGFGACEGTLACSTCHLIFEDHIYEKLDAITDEENDMLDLAYGLTDRSRLGCQICLTKSMDNMTVRVPETVADARQSIDVGKTS
B4: FADD 3-81 (Homo sapiens, UniProt Q13158); sequence looked up; chain PFLVLLHSVSSSLSSSELTELKFLCLGRVGKRKLERVQSGLDLFSMLLEQNDLEPGHTELLRELLASLRRHDLLRRVDD
B5: ISU1 mature (Saccharomyces cerevisiae, UniProt Q03020); sequence looked up; chain SSITKRLYHPKVIEHYTHPRNVGSLDKKLPNVGTGLVGAPACGDVMRLQIKVNDSTGVIEDVKFKTFGCGSAIASSSYMTELVQGMTLDDAAKIKNTEIAKELSLPPVKLHCSMLAEDAIKAAIKDYKSKRNTPTMLS
UniProt P15873, sequence (whole entry, unmodified, looked up): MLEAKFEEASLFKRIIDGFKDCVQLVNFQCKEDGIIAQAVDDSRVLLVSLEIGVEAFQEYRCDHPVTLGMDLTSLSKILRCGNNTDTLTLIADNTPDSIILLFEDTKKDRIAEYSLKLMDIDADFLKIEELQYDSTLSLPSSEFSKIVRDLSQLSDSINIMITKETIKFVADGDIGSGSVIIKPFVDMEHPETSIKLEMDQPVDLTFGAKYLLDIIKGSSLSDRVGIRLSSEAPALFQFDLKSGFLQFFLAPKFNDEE
UniProt P35222, sequence (whole entry, looked up): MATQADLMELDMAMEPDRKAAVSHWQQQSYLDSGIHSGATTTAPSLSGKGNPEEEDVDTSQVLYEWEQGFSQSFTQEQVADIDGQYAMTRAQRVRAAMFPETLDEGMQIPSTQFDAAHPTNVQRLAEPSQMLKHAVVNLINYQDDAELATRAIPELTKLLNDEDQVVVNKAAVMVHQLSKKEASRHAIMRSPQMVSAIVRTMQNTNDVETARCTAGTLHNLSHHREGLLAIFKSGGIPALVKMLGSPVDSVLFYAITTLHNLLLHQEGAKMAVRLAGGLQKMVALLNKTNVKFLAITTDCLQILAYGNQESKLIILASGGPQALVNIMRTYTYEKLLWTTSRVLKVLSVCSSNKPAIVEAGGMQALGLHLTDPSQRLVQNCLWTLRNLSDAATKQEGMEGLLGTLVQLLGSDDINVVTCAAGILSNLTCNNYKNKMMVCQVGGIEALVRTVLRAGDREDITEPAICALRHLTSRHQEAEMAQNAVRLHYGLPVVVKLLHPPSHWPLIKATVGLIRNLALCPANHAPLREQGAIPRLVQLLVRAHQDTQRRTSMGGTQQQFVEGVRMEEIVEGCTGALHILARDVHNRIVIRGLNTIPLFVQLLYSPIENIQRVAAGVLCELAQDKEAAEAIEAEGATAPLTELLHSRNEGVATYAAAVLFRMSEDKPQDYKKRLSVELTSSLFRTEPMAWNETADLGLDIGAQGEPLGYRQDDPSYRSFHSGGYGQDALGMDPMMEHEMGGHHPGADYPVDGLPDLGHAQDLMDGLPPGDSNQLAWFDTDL
UniProt Q13185, sequence (whole entry, looked up): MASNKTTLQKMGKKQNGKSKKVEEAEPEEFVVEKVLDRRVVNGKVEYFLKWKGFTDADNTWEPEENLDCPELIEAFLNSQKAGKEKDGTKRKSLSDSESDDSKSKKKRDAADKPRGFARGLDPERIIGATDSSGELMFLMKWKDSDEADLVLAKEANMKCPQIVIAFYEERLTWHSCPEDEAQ
UniProt P06400, sequence (whole entry, unmodified, looked up): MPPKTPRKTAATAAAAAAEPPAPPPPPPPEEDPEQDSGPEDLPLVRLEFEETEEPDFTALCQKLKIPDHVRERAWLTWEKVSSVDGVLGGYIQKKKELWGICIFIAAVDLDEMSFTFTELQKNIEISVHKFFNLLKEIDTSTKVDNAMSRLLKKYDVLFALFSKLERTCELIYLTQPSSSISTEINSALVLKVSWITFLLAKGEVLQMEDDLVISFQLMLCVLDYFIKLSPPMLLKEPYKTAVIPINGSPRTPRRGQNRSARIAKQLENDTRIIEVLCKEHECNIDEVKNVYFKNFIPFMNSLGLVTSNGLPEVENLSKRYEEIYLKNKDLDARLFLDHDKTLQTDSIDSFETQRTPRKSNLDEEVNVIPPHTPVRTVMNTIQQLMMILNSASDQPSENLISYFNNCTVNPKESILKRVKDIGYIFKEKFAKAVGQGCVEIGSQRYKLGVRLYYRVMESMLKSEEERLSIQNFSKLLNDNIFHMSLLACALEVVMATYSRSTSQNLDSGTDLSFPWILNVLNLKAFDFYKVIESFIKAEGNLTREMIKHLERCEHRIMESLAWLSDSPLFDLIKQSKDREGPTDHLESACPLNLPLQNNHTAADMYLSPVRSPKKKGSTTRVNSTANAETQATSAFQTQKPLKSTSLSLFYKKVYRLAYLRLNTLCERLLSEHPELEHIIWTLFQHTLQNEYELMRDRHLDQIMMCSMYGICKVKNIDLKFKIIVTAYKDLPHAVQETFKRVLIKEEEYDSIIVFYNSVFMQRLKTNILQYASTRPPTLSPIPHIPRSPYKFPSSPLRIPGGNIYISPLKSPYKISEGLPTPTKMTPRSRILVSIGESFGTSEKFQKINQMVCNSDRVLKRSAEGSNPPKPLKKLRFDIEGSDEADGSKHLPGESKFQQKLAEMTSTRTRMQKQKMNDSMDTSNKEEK
UniProt P29317, sequence (whole entry, looked up): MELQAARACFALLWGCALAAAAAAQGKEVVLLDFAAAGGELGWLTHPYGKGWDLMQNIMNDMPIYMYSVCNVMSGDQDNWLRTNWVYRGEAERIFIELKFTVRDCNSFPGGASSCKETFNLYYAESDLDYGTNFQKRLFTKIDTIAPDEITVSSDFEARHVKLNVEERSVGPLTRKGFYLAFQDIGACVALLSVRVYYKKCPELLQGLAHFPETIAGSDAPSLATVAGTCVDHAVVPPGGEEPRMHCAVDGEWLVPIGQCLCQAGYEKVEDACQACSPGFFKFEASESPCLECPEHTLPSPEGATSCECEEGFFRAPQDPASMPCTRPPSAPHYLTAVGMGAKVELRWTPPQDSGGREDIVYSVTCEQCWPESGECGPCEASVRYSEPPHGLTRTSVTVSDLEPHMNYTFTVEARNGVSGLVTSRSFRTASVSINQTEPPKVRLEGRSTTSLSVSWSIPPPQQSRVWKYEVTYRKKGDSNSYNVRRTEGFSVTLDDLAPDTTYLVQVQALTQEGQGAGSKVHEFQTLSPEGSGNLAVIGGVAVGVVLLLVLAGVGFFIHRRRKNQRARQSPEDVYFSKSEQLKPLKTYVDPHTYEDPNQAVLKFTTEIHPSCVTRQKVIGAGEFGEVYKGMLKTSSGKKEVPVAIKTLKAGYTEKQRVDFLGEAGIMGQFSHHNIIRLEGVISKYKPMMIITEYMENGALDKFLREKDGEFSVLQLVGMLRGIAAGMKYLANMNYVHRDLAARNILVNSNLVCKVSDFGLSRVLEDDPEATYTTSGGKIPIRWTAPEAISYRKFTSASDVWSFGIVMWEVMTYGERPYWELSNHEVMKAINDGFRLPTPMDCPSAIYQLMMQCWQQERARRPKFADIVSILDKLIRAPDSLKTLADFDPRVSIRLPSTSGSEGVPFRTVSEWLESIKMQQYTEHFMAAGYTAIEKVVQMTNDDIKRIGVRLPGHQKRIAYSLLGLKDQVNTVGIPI
UniProt P29350, sequence (whole entry, unmodified, looked up): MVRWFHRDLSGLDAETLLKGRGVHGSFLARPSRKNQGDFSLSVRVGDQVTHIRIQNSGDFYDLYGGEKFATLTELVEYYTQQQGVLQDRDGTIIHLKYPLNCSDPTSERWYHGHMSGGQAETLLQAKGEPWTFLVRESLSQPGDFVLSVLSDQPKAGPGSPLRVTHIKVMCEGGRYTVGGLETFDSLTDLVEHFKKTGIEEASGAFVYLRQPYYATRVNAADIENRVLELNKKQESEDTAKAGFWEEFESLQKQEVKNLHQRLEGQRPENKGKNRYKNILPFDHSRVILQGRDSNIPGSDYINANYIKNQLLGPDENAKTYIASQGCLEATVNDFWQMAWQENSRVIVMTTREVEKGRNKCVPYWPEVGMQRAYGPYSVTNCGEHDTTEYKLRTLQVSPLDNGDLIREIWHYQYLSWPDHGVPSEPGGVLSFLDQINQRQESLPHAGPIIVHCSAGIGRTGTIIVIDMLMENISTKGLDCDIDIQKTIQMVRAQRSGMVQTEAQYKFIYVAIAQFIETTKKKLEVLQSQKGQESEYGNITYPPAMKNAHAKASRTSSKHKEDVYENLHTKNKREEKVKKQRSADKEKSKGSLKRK
UniProt P31749, sequence (whole entry, unmodified, looked up): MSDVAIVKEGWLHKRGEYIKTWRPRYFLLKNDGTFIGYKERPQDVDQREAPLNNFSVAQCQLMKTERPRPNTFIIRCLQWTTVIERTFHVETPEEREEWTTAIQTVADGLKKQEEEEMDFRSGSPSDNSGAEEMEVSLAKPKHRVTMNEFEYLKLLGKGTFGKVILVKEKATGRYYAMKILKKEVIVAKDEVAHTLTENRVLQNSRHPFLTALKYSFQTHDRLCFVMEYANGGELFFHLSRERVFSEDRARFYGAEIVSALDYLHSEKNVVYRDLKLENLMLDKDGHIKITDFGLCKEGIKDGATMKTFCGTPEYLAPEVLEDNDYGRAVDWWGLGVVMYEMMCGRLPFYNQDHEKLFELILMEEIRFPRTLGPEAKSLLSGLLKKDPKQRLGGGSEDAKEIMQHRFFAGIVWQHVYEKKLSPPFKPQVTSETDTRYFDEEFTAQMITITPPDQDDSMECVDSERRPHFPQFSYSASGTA
UniProt P53193, sequence (whole entry, unmodified, looked up): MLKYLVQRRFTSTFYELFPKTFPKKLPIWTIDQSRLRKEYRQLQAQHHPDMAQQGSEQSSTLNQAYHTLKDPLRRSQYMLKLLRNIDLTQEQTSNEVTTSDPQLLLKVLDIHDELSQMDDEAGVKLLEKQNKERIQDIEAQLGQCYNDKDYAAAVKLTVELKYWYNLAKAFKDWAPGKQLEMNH

Substance | target or system | assay | test system | setting | measurement | result
{DOTA}-TNYLFSPNGPIARAW (peptide; N-terminal DOTA; DOTA = O=C(O)CN1CCN(CC(=O)O)CCN(CC(=O)*)CCN(CC(=O)O)CC1) | EPHB4 16-539 (Homo sapiens, UniProt P54760) | SPR | peptide | – | Kd | 0.0233 µM
ARTKQTARKSTGGK (histone H3 2-15 (Homo sapiens, UniProt P68431); K9me3; sequence looked up) | CBX3, C-terminal Atto532, amide (Homo sapiens, UniProt Q13185) | MST | peptide | – | Kd | 4.1 ± 1 µM
{TMR}-QDDYLWGLEAGEGISDLFD (E2F2 409-428 (Homo sapiens); N-terminal TMR label; TMR = tetramethylrhodamine dye) | RB1 55-787 del245-267/del582-642, phosphorylated by Cdk2-CycA (UniProt P06400) | fluorescence polarisation | peptide | pH 8.0, NaCl 100 mM, two-site fit, with: E7 LxCxE peptide 10 µM | Kd | 0.031 µM
ATRIP fragment T12A | RPA1 | competition with ATRIP probe, fluorescence polarisation | – | pH 7.5, NaCl 75 mM | Kd | 17 µM
{FITC-Ahx}-DFTADDLEELDTLAS-NH2 (ATRIP residues 54-68; SMILES CC(C)C[C@H](NC(=O)[C@H](CC(=O)O)NC(=O)[C@H](CC(=O)O)NC(=O)[C@H](C)NC(=O)[C@@H](NC(=O)[C@H](Cc1ccccc1)NC(=O)[C@H](CC(=O)O)NC(=O)CCCCCNC(=S)Nc1ccc2c(c1)C(=O)OC21c2ccc(O)cc2Oc2cc(O)ccc21)[C@@H](C)O)C(=O)N[C@@H](CCC(=O)O)C(=O)N[C@@H](CCC(=O)O)C(=O)N[C@@H](CC(C)C)C(=O)N[C@@H](CC(=O)O)C(=O)N[C@H](C(=O)N[C@@H](CC(C)C)C(=O)N[C@@H](C)C(=O)N[C@@H](CO)C(N)=O)[C@@H](C)O; N-terminal FITC-Ahx, C-terminal amide; FITC = O=C1OC2(c3ccc(O)cc3Oc3cc(O)ccc32)c2ccc(NC(=S)*)cc21; Ahx = NCCCCCC(=O)O) | RPA1 | fluorescence polarisation | peptide | – | Kd | 6.4 ± 1.1 µM
Gphn E domain , monomeric | ARHGEF9 1-456, CB2-SH3+, FlAsH on tetra-cysteine motif (rat) | CFP lifetime FRET, fluorescence titration | – | pH 8, NaCl 250 mM | Kd | 44.1 µM
B1 (CLASP1/GFP 1-654) | PRC1 (Homo sapiens, UniProt O43663) | BLI | – | – | Kd | > 10 µM
QTARK(Ac)STGG (histone H3 6-14 (Homo sapiens, UniProt P68431); also: biotinylated, site not given here; K9ac; sequence looked up) | YAF9 8-171 R114D (Saccharomyces cerevisiae, UniProt P53930) | fluorescence titration | peptide | pH 7.5, 25 °C, NaCl 150 mM | Kd | 22 µM
B2 (UGT1A9) | O=c1cc(-c2ccccc2)oc2cc(O)c(O)cc12 | steady-state kinetics | – | pH 7.4, 37 °C | Vmax/Km | 910 µL/min/mg
LEQKAASCHNSYIVLCIENSFMTSFSK (Col18a1 C-terminal endostatin peptide (Mus musculus)) | Flt4 25-775 (Mus musculus, UniProt P35917) | SPR | peptide | – | Kd | 0.0478 µM
BCL9 HD2B peptide | CTNNB1 (Homo sapiens, UniProt P35222) | AlphaScreen | – | – | Kd | 0.00433 µM
ETDKE[pY][pY]TVKD (JAK1 1029-1039; pY1034/pY1035; pY = N[C@@H](Cc1ccc(OP(=O)(O)O)cc1)C(=O)O) | PTPN6 243-530 Q252A/C453S (Homo sapiens, UniProt P29350) | ITC | peptide | pH 8.0, 25 °C, NaCl 100 mM | Kd | 0.6 ± 0.1 µM
B3 (adrenodoxin) | CYP27A1 (Homo sapiens, UniProt Q02318) | MST | – | pH 7.4, 25 °C, oxidized, single-site model | Kd | 0.05 µM
Crebbp fragment (Mus musculus) | AKT1 T308D/S473D (Homo sapiens, UniProt P31749) | intrinsic Trp fluorescence, fluorescence titration | – | pH 7.4, 25 °C, wild type | Kd | 0.0043 ± 0.0001 µM
RFC1/RFC2/RFC3/RFC4/RFC5 Rfc1 284-end (Saccharomyces cerevisiae) | POL30 1-258 C22S/C62S/C81S/S43C, MDCC on Cys43 (Saccharomyces cerevisiae, UniProt P15873) | fluorescence titration | – | with: ATP 0.5 mM | Kd | 0.0077 µM and 0.0096 µM
ATRIP fragment, N-terminal FITC, aminohexanoic linker | RPA1 | fluorescence polarisation | – | pH 7.5, NaCl 75 mM | Kd | 0.35 µM
B4 (FADD 3-81) | CASP8 tandem DED Y8A, TAMRA label | fluorescence polarization | – | apparent | Kd | 0.823 µM
B5 (ISU1 mature) | JAC1 D110A/D113A/D114A/Q117A (Saccharomyces cerevisiae, UniProt P53193) | pull-down | – | apparent | Kd | 4.73 ± 1.79 µM
E-cadherin fragment, fluorescent label (Homo sapiens) (sequence not shown) | CTNNB1 fragment (Homo sapiens) | fluorescence polarization | – | 2 h, pH 7.4 | Kd | 0.08 µM
KVAK[pS]PKKAKAW (H1-5 168-178 (Homo sapiens); pS172; pS = N[C@@H](COP(=O)(O)O)C(=O)O) | PIN1 fragment (Homo sapiens) | NMR titration | peptide | apparent Kd, single-residue fits | Kd | 1600 µM
SAYPDSVPMMS (designed peptide) | EPHA2 27-200 (Homo sapiens, UniProt P29317) | ITC | peptide | – | Kd | 9 µM

Repeated from above:
Substance | target or system | assay | test system | setting | measurement | result
KVAK[pS]PKKAKAW (H1-5 168-178 (Homo sapiens); pS172; pS = N[C@@H](COP(=O)(O)O)C(=O)O) | PIN1 fragment (Homo sapiens) | NMR titration | peptide | apparent Kd, single-residue fits | Kd | 1600 µM
E-cadherin fragment, fluorescent label (Homo sapiens) (sequence not shown) | CTNNB1 fragment (Homo sapiens) | fluorescence polarization | – | 2 h, pH 7.4 | Kd | 0.08 µM
{FITC-Ahx}-DFTADDLEELDTLAS-NH2 (ATRIP residues 54-68; SMILES CC(C)C[C@H](NC(=O)[C@H](CC(=O)O)NC(=O)[C@H](CC(=O)O)NC(=O)[C@H](C)NC(=O)[C@@H](NC(=O)[C@H](Cc1ccccc1)NC(=O)[C@H](CC(=O)O)NC(=O)CCCCCNC(=S)Nc1ccc2c(c1)C(=O)OC21c2ccc(O)cc2Oc2cc(O)ccc21)[C@@H](C)O)C(=O)N[C@@H](CCC(=O)O)C(=O)N[C@@H](CCC(=O)O)C(=O)N[C@@H](CC(C)C)C(=O)N[C@@H](CC(=O)O)C(=O)N[C@H](C(=O)N[C@@H](CC(C)C)C(=O)N[C@@H](C)C(=O)N[C@@H](CO)C(N)=O)[C@@H](C)O; N-terminal FITC-Ahx, C-terminal amide; FITC = O=C1OC2(c3ccc(O)cc3Oc3cc(O)ccc32)c2ccc(NC(=S)*)cc21; Ahx = NCCCCCC(=O)O) | RPA1 | fluorescence polarisation | peptide | – | Kd | 6.4 ± 1.1 µM
